Experimental data collected from several papers.
A part holds a random share of what one study measured.

Block 1
Target: RNA binding protein fox-1 homolog 2, RRM domain, GST-SBP tag (RBFOX2, Homo sapiens, UniProt O43251-10, residues 100-194)
Method: RNA Bind-n-Seq
Molecule type: RNA
Sample: in vitro
Concentration: 365 nM
Notes: natural RNA segment, single round, ends assumed
Baseline: no-protein control
Direction: higher = stronger binding
Target sequence (chain): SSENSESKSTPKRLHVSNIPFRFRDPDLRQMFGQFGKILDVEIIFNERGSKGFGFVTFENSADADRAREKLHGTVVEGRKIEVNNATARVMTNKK
| Oligonucleotide | RBNS enrichment (R) |
| --- | --- |
| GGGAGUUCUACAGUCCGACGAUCCUGGGAAAGCAGGUACCCCAGUGAAACUGGUCUGUGCUUGGUUUAACAGCUCCAACAAUUUCAGAUCCAUGGGGCUGCUUGACCAUAGACCCUGUUUACUCCAUGCCUGUUGGAAUUCUCGGGUGCCAA | 0.384 |
| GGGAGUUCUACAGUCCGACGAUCAAACUAGAUAAAUGACCUCAUUUUCUUGAGCUUGAAUUCAUUUUUAAUUUUAAUUUUAUUUUAUACAACGUGUAGACGGUUCCCUGUUCUCUGCAUUUAGAAGUAUACACUGGAAUUCUCGGGUGCCAA | 1.31 |
| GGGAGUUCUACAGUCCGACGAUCCUGUGGCCCAGCUCCGAGAGUGAUAUUUGCUCUGGUAGGUGAGGGCCUGAGGGUACAUUUCUCCACCUGUGCCCCCUCAUGUUCACAGAGGAUUUCAGCAGCUGCAACUGUGGAAUUCUCGGGUGCCAA | 0.593 |
| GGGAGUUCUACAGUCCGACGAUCUAGUCUUUCUGUGUGACUUAUUAGGAGAUAGGAAGAGCAUUGGGAAACUUGCACAGCUAGCUAUGCAUCUACAUUUUGGUUUGGGGUUAGUUAUGAAAUGUUCUUAAUAUUGGAAUUCUCGGGUGCCAA | 1.35 |
| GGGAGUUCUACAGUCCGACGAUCGGGGGAUUGUGGUGAGUGAGAAUCAAGGCCACCUUGUGUGUUUUCUCACUCUCGAAUGCAAGUGGGAGAGGGAAAAUGACUCGGGACGCCAUUGUAACGGUUCCUGGAAGUGGAAUUCUCGGGUGCCAA | 4.9 |
| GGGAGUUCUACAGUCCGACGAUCGAAAUGUUUAAUUUCAGUUACUGUGAAUUCUUCUAAUCAGUUCGUUCUUUGAUUUUAAAAAGAAAAACCUUUUCCAUCAUAUUAAAGAGAAAAUUAGCUAUGGGAAGAUAUGGAAUUCUCGGGUGCCAA | 0.863 |
| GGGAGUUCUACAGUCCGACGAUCGGUCACUCGCAACCUGAGUUCACCACAGCGGGAAUAGCUGUGAGAAACACAAGCAAAACAACAAAAUUAAUAAUCUGACGGAGGGGAAUUCUAGAAUUAUAUGCUAAAUGUGGAAUUCUCGGGUGCCAA | 0.63 |
| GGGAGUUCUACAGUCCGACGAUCAUGCCACGUGUGCUUCAUGAUGGAACUUUUAGGUCAGUUCCUAUUAAAUGAGCUCUUUUGCAGAUAGCACAUUCAGUAGCCUUAUUUUGUUGAUGGAAUACUGUAUCAUAUGGAAUUCUCGGGUGCCAA | 0.454 |
| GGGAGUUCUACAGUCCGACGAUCACACUUGUUCACUAAGUGUAAGACCCUGGUAUCCUUUCCUAGAACUGUCAAAAAUAAAUGGAUGGAUAAAUGGAGUGUGUGGAAGUUCAUGUUUUUUCCCAUCAUCAAGGUGGAAUUCUCGGGUGCCAA | 0.489 |
| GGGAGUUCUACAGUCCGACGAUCGCUCGGCUUCUGCCUCUGUUUCCAAGCCCACCCCUUCCCGGAGGGAUAGGGACGGGUGCUUUCCUCUCUAGUUGUAUCUGAGCGGAAGGAACAUCUUUCUGUAGCUAAUAUGGAAUUCUCGGGUGCCAA | 0.21 |
| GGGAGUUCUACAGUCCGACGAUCUGACUAGUAAGGUGUUGUAAGUGAUAAGAUCAAUAUCCCUAUGGCUGCUUCCUUGAUCACAGUUUCAAGAUGUGUUCUUGCUCUCAUCCUUCAUCAUUGACACUGACCCUUGGAAUUCUCGGGUGCCAA | 0.352 |
| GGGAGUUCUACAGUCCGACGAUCAAAGAAAUUCUGUUAAUGUUAAUUAAAGUAAAAUUAUUCCCUGAAUUGUUUGAUAUUGUCACCUAGCAGAUAUGUAUUACUUUUCUGCAAUGUUAUUAUUGGCUUGCACUUGGAAUUCUCGGGUGCCAA | 0.814 |

Block 2
Target: Sal-like protein 4, full length isoform B (SALL4, Homo sapiens, UniProt Q9UJQ4-2, residues 1-616)
Method: universal PBM
Molecule type: double-stranded DNA, one strand shown
Sample: in vitro
Concentration: not given
Notes: 8-mer, flanks averaged, mean of replicates
Direction: higher = stronger binding
| Oligonucleotide | E-score |
| --- | --- |
| ATCCCCGG | -0.338 |
| AGTTAGAT | 0.156 |
| ATGAGAAA | 0.227 |
| AACTCGTG | -0.00326 |
| AGCATGGC | -0.182 |
| AGAACCGC | -0.112 |
| ATGTTCTG | 0.0333 |
| ATTTAAAT | 0.369 |
| CCCTAGGG | -0.252 |
| GACATTGC | 0.082 |
| CGGAGCTC | -0.251 |
| CACAGCCG | -0.247 |
| TCTCGCCA | -0.161 |
| CCCTCACA | -0.091 |
| AGCAATCC | -0.151 |
| AACAAGAG | -0.0877 |

Block 3
Target: Prothrombin, mature alpha-thrombin (F2, Homo sapiens, UniProt P00734)
Method: aptamer microarray, sandwich
Molecule type: DNA with 2'F-ANA
Sample: in vitro
Concentration: 200 nM
Notes: whole 15-mer aptamer, many near background
Added: Cy3 exosite-II aptamer, 400 nM
Direction: higher = stronger binding
Oligonucleotide: GGTTGGTGTGGTTGG
| Modification | mean fluorescence intensity |
| --- | --- |
| 2'F-ANA at 2 4 5 6 8 9 10 11 12 13 | 49.6 a.u. |
| 2'F-ANA at 1 2 3 9 11 12 15 | 362 a.u. |
| 2'F-ANA at 2 5 7 13 15 | 88.3 a.u. |
| 2'F-ANA at 1 3 7 8 11 12 13 15 | 474 a.u. |
| 2'F-ANA at 1 3 5 12 13 14 15 | 59.1 a.u. |
| 2'F-ANA at 3 4 6 7 8 9 14 15 | 246 a.u. |
| 2'F-ANA at 2 4 6 7 8 9 13 | 203 a.u. |
| 2'F-ANA at 1 3 5 8 11 12 13 14 | 49.4 a.u. |
| 2'F-ANA at 2 4 5 7 8 9 10 11 13 | 50.6 a.u. |
| 2'F-ANA at 1 3 5 7 8 11 13 14 15 | 57.7 a.u. |
| 2'F-ANA at 5 6 12 13 14 15 | 49.2 a.u. |
| 2'F-ANA at 4 7 8 9 12 | 604 a.u. |
| 2'F-ANA at 1 2 3 4 5 6 8 9 10 11 15 | 47.8 a.u. |
| 2'F-ANA at 1 2 3 6 7 12 14 15 | 88.2 a.u. |
| 2'F-ANA at 2 3 4 9 11 13 | 406 a.u. |
| 2'F-ANA at 2 3 8 9 11 12 13 15 | 857 a.u. |
| 2'F-ANA at 1 2 7 11 12 14 | 78.4 a.u. |
| 2'F-ANA at 1 2 3 4 7 12 13 14 15 | 77.7 a.u. |
| 2'F-ANA at 1 3 6 7 9 11 13 | 205 a.u. |
| 2'F-ANA at 4 5 6 7 9 11 15 | 55.8 a.u. |
| 2'F-ANA at 2 4 5 6 7 8 10 11 15 | 55.7 a.u. |
| 2'F-ANA at 2 3 4 7 12 14 | 412 a.u. |
| 2'F-ANA at 2 5 6 8 11 13 14 | 48.2 a.u. |
| 2'F-ANA at 1 3 4 6 7 9 10 11 13 14 | 72.2 a.u. |

Block 4
Target: Interferon regulatory factor 7, full length, phosphomimetic (IRF7, Homo sapiens, UniProt Q92985, residues 1-503, S471D/S472D/S475D/S476D/S477D/S483D/S484D/S487D)
Chain of UniProt Q92985 (whole entry, unmodified, looked up): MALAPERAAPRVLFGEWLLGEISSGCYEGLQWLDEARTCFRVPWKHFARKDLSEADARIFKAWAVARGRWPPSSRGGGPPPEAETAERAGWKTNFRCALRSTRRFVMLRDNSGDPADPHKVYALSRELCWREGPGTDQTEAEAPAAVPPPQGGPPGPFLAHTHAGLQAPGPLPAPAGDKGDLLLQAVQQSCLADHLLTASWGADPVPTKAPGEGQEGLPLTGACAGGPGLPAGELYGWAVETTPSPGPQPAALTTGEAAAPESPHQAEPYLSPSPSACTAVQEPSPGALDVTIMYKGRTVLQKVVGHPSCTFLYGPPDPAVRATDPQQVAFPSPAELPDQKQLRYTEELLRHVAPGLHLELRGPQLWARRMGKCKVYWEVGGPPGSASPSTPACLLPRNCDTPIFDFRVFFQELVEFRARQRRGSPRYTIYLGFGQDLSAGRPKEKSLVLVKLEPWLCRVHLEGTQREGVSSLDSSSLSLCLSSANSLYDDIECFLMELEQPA
Method: protein-binding microarray
Molecule type: double-stranded DNA, one strand shown
Sample: in vitro
Concentration: 2200 nM top
Notes: 60-bp whole probe
Added: salmon DNA 0.4 mg/ml
Baseline: random background probes
Direction: higher = stronger binding
Constant ends, left off below: GCCTAGCAC … GTCTTGATTCGCTTGACGCTGCTG
| Oligonucleotide | fitted relative affinity |
| --- | --- |
| TCAAGATTTTTTTTCCTACTGTGCTAG | 0.766 z-score |
| TTAGATTTCAATTTCGATTAGTGCTAG | 3.79 z-score |
| CAAGGAACTCAGAGATTTAAGTGCTAG | -1.25 z-score |
| TTAGGTAGCGGGTTTCGGTTAGTGCTA | 2.9 z-score |
| GACCGTCTCGGTTTCGGGACGTGCTAG | 3.52 z-score |
| TTAGGTCTCGGTTTGGGTTAGTGCTAG | 2.39 z-score |
| GCAAGAACAGCTGGTGGGCAGTGCTAG | -0.482 z-score |
| TTAGGTTTCGGTCGCGGTTAGTGCTAG | 3.95 z-score |
| GACGATTCCAGTTTGGAGACGTGCTAG | 0.686 z-score |
| TCAAGTATTTTTTTCCAACTGTGCTAG | 0.716 z-score |
| GTCGATATCAGTCTCGAGACGTGCTAG | 0.827 z-score |
| TCATTTCCCAGAACTGGAACTGTGCTA | 1.85 z-score |
| GACGGTATCGGACTGGGGTCGTGCTAG | -0.278 z-score |
| TTAGGACTGGGATTCGGTTAGTGCTAG | 0.622 z-score |
| GTCCTTTTCTTTACTGATGGGTGCTAG | 1.88 z-score |
| TTAGATTTCGGTTTTCGATTAGTGCTA | 9.41 z-score |
| GACGGTATCGACACTGGGGAGGTGCTA | -0.435 z-score |
| TTAGATTTCGGGATTCGATTAGTGCTA | 2.38 z-score |
| TTTTTTTTATTTATAAATTAGTGCTAG | 0.87 z-score |
| TTAGGTTTCCAACTGCTTTAGTGCTAG | 1.01 z-score |
| TGAGATATCAGACTGGATTAGTGCTAG | -0.408 z-score |
| TCATCCATGCTCTGTCGCACTGTGCTA | 1.19 z-score |
| TTAGGTATCGGTATCGGTGAGTGCTAG | 0.634 z-score |
| GAGGATTTCAGTCTCGAGACGTGCTAG | 0.432 z-score |
| GTAAAATTATTCTGTATATTGTGCTAG | -0.0724 z-score |
